# Experimental data of several laboratories.
# Lines come from different studies, so protocols differ. Several values in a cell are separate wells, animals, samples, runs or records. Numbers after ± are the reported error.
# Chain of UniProt P10632 (whole entry, looked up): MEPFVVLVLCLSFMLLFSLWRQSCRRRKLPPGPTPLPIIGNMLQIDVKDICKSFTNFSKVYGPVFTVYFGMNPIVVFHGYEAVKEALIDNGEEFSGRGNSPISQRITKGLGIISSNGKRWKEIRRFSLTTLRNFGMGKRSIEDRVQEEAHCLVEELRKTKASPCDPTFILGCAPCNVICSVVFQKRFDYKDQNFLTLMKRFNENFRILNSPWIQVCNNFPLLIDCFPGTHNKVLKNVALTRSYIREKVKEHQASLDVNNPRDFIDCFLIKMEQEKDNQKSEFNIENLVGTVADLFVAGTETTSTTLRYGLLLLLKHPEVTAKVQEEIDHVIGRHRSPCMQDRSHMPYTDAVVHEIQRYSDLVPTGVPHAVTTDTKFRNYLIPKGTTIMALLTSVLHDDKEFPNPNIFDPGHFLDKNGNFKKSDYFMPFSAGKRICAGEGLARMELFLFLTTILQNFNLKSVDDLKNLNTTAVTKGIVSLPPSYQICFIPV
# Chain of UniProt P02769 (whole entry, looked up): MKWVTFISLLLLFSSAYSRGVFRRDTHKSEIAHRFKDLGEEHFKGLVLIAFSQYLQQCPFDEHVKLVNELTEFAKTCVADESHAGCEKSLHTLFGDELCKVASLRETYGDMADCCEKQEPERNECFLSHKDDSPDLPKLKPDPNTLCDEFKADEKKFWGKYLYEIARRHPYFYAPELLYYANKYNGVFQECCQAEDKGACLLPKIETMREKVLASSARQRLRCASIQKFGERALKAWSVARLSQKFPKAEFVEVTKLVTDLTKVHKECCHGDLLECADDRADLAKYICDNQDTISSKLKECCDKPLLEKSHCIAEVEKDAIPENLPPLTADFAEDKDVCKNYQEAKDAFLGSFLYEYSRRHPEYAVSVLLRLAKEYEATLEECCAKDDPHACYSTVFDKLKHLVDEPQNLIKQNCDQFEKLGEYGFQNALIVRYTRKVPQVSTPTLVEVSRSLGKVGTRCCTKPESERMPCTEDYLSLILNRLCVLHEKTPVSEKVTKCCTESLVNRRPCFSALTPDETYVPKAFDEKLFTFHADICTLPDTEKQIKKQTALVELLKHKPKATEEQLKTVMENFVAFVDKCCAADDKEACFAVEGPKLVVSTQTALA
# Chain of UniProt Q8N4C8 (whole entry, looked up): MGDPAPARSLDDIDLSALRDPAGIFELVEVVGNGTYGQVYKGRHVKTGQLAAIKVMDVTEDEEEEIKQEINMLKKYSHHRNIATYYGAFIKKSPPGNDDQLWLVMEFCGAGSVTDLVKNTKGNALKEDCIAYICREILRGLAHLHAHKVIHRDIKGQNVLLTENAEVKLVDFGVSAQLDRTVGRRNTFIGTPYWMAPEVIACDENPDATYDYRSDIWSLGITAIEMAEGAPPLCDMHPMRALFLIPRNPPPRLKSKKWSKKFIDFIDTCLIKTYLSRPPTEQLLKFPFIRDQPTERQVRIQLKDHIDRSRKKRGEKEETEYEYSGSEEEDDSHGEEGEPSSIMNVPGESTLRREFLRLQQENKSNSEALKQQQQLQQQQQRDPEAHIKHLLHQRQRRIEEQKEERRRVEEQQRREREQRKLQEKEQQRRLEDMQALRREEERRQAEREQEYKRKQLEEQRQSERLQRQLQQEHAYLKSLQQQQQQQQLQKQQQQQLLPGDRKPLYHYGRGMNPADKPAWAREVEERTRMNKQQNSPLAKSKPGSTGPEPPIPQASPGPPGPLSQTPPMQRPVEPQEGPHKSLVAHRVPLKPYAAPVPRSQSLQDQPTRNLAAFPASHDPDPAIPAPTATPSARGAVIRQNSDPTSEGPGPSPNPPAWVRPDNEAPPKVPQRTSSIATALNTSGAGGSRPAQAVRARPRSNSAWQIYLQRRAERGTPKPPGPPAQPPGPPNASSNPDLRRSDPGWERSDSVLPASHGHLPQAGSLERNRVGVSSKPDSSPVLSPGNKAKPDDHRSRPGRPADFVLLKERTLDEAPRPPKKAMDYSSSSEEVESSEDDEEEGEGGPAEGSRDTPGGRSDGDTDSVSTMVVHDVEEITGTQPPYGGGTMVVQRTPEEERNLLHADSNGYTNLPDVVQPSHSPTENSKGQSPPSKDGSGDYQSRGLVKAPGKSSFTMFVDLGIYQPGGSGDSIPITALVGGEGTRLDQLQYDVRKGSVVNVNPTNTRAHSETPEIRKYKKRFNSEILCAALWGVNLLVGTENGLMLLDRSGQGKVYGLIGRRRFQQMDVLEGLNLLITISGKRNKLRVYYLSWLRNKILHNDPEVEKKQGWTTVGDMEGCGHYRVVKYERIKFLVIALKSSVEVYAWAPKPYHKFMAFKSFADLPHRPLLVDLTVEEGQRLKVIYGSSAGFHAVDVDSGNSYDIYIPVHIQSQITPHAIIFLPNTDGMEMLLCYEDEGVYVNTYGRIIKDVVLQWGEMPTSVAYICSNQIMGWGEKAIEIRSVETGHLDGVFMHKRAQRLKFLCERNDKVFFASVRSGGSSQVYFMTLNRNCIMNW
SMILES,tested on,test,system,setting,scale,quantity,value
Cc1nc(N)c2c(Nc3ccc(F)cc3)n[nH]c2n1,HeLa Ohio,,,72 h,,CC50,65.8 µM
O=C([O-])CN1CCN(CC(=O)[O-])CCN(Cc2cccc(C(=O)[O-])n2)CC1.[18F-].[Sc+3],,,"mouse, heart","intravenous, 1 h",,tracer uptake,0.26 %ID/g
Nc1nc(-c2cccc(OC(F)(F)F)c2)nc2[nH]nc(Nc3ccc(C(F)(F)F)cc3)c12,HeLa Ohio,,,72 h,,CC50,7.9 µM
CN1CCCNC(=O)c2cccc(c2)C(=O)NCCCN(C)CCCNc2cccc3c2C(=O)c2cccc(c2C3=O)NCCC1,SAS,"RNA-Seq, refers to: GTF2E2 mRNA",,"1 µM, 6 h",relative to: untreated cells,log2 fold change,-1.39
Nc1nc(-c2ccccc2)nc2[nH]nc(Nc3cc(F)ccc3F)c12,HeLa Ohio,,,72 h,,CC50,> 148 µM
N#C[C@@H]1CC(F)(F)CN1C(=O)CNC(=O)c1ccnc2c(NC(=O)[C@@H](N)CCCCNC(=O)CCOCCOCCOCCOCCOCCOCCNC(=O)CN3CCN(CC(=O)[O-])CCN(CC(=O)[O-])CCN(CC(=O)[O-])CC3)cccc12.[177Lu+3],U-87 MG tumour model,,"host not given, heart","24 h, tumour-bearing",,tracer uptake,0.02 %ID/g
O=C1C2CC3CC1CC(C(=O)N1CCN(c4ccc([N+](=O)[O-])c5ncccc45)CC1)(C3)C2,Salmonella typhimurium,Ames test,TA1535,"0.13 µg/well, with S9 activation",,revertant colony count,1 colonies/well
CS(=O)(=O)c1ccc(Nc2n[nH]c3nc(-c4ccccc4)nc(N)c23)cc1,HeLa Ohio,,,72 h,,CC50,31.3 µM
C=CC(=O)Nc1cccc(Cn2ncc3cnc(Nc4cnn(CCOC)c4)nc32)c1,PRKCH human,"binding, KINOMEscan",,100 nM,lower = stronger binding,percent of control,100%
Cc1ccc(-c2nc(N)c3c(Nc4ccc(Cl)cc4)n[nH]c3n2)cc1,HeLa Ohio,,,72 h,,CC50,6.8 µM
CN1CCN(c2ccc3[nH]c(-c4ccc5[nH]c(-c6ccc(OCCCCNC(=O)c7ccc8c(c7)C(=O)OC87c8ccc(N(C)C)cc8C(C)(C)c8cc(N(C)C)ccc87)cc6)nc5c4)nc3c2)CC1,"Albumin (ALB, Bos taurus, UniProt P02769)","binding, fluorescence titration",PBS,1 h,,Kd,334 ± 70 µM
C=C(NC(=O)c1csc(-c2nc3c(cc2O)-c2nc(cs2)C(=O)NC(C(C)O)C(=O)NC(=C(C)OC)c2nc(cs2)C(=O)NC2c4nc(cs4)C(=O)NC(COC(=O)c4c5c6c(cccc6n4O)COC(=O)C(OC4CC(C)(O)C(N(C)C)C(C)O4)C2OC5)c2nc-3cs2)n1)C(N)=O (centres unmarked),,,"Sprague-Dawley rats, female, plasma","intravenous infusion, 6 mg/kg, day 7, multiple dosing",,AUC(0-t),1630 ng·h/mL
CCCC[C@H](NC(=O)CCCCCCCNC(=O)CN1CCN(CC(=O)O)CCN(CC(=O)O)CC1)C(=O)N[C@H]1CC(=O)NCCCC[C@@H](C(N)=O)NC(=O)[C@H](Cc2c[nH]c3ccccc23)NC(=O)[C@H](CCCNC(=N)N)NC(=O)[C@@H](Cc2ccccc2)NC(=O)[C@H](Cc2c[nH]cn2)NC1=O [technetium-99m labelled],,,"C57 mouse, liver","intravenous, 0.037 MBq, 24 h",,tissue uptake,0.02 ± 0.01 %ID/g
Cc1ncsc1-c1ccc(C(C)NC(=O)C2CC(O)CN2C(=O)C(NC(=O)CCCCCCCCCCN2CCCC(Nc3ncc(Cl)c(Nc4ccccc4S(=O)(=O)C(C)C)n3)C2)C(C)(C)C)cc1 (centres unmarked),22Rv1,"RNA-seq, refers to: ZNF319 mRNA",,concentration not given,relative to: DMSO,log2 fold change,-1.91
CN(Cc1ccccc1)C(=O)CN1CCN(CC(=O)[O-])CCN(Cc2cccc(C(=O)[O-])n2)CC1.[18F-].[Sc+3],,,"mouse, stomach","intravenous, 1 h",,tracer uptake,0.08 %ID/g
COC1CN([C@H]2CC[C@H]([C@@]3(C)Oc4c(Cl)cc(C(=O)NCc5c(SC)cc(C)[nH]c5=O)c(C)c4O3)CC2)C1,,"RNA-seq, refers to: PCGF5 mouse homolog","mouse, HT-1376 xenograft, whole blood",dose not given,relative to: vehicle,log2 fold change,0.291
CC(C)=CCc1cc(C(=O)/C=C/c2ccc(O)cc2)c(O)cc1O,,"phase I metabolism, substrate",mouse liver microsomes,,,Km,3.78 ± 0.58 µM
Nc1ncc(-c2cc(-c3cnn(CC(F)(F)F)c3)ncc2F)nc1C(=O)NC1CNCC(F)C1 (centres unmarked),SLK,KINOMEscan,,1 µM,relative to: DMSO control,remaining binding,22%
O=C(Nc1cnccc1-c1ccc([18F])cc1)c1ccnc(NC(=O)C2CC2)c1,,ex vivo gamma counting,"GSK-3β transgenic mice, late-stage, stomach","intravenous, 1.26 MBq/animal, 120 min, mean, no P-gp inhibitor",,SUV,1.22
N#C[C@@H]1CC(F)(F)CN1C(=O)CNC(=O)c1ccnc2c(NC(=O)CCOCCOCCOCCOCCOCCOCCNC(=O)[C@H](CCCCNC(=O)CN3CCN(CC(=O)[O-])CCN(CC(=O)[O-])CCN(CC(=O)[O-])CC3)NC(=O)CCCc3ccc(I)cc3)cccc12.[177Lu+3],U-87 MG tumour model,,"host not given, blood","4 h, tumour-bearing",,tracer uptake,2.71 %ID/g
CCN(CC)CC#CCNc1ccnc2cc(Cl)ccc12,Salmonella typhimurium,mini-Ames test,TA98,"125.0 µg/well, without S9",,revertants,9 revertants/well and 3 revertants/well
O=C(Nc1cc(-c2ccnc3[nH]ccc23)c(Cl)cn1)[C@H]1CCC[C@@H](NC(=O)C(F)(F)F)C1,P-glycoprotein (MDR1),,MDCK-MDR1 cells,apical to basolateral,,Papp,17 ×10⁻⁶ cm/s
CC(C)OCCOCc1ccc(OCC(O)CN(N=O)C(C)C)cc1 (centres unmarked),Salmonella typhimurium,Ames test,TA98,"500 µg/plate, without metabolic activation",relative to: solvent control,revertant fold increase,0.8 fold
CCN(CC)CC(=O)Nc1cccc(-n2cc(-c3ccc4ccc(-c5cn(-c6cccc(NC(=O)CN(CC)CC)c6)nn5)cc4c3)nn2)c1,RCC4,"PCR angiogenesis array, refers to: BAI1",,"5 x IC50, 2 h, normoxia",relative to: untreated,fold regulation,-1.09
CC(C)Cc1ccc(C(C)C(=O)N[C@@H](CCCCNC(=O)CCOCCOCCOCCOCCOCCOCCNC(=O)CN2CCN(CC(=O)[O-])CCN(CC(=O)[O-])CCN(CC(=O)[O-])CC2)C(=O)Nc2cccc3c(C(=O)NCC(=O)N4CC(F)(F)C[C@H]4C#N)ccnc23)cc1.[177Lu+3] (some centres unmarked),U-87 MG tumour model,,"host not given, pancreas","24 h, tumour-bearing",,tracer uptake,1.29 %ID/g
COc1cccc(OC)c1-c1cc(C(=O)NC2(C(=O)O)C3CC4CC(C3)CC2C4)nn1-c1ccc(C(=O)N(C)CCOCCN(C)C(=O)[C@H](CCCCNC(=O)[C@H](CC(C)C)NC(=O)C2OC2C(=O)O)NC(=O)CN2CCN(CC(=O)[O-])CCN(CC(=O)[O-])CCN(CC(=O)[O-])CC2)cc1C(C)C.[177Lu+3] (mixture of isomers),HT-29 tumour model,,"host not given, stomach","24 h, tumour-bearing",,tracer uptake,0.2 %ID/g
Nc1nc(-c2ccccc2)nc2[nH]nc(Nc3cccc(Cl)c3)c12,HeLa Ohio,,,72 h,,CC50,> 148 µM
COc1cccc(OC)c1-c1cc(C(=O)NC2(C(=O)O)C3CC4CC(C3)CC2C4)nn1-c1ccc(C(=O)N(C)CCOCCOCCN(C)C(=O)[C@H](CCCCNC(=O)[C@H](CC(C)C)NC(=O)C2OC2C(=O)O)NC(=O)CN2CCN(CC(=O)[O-])CCN(CC(=O)[O-])CCN(CC(=O)[O-])CC2)cc1C(C)C.[177Lu+3] (mixture of isomers),HT-29 tumour model,,"host not given, blood","7 days, tumour-bearing",,tracer uptake,0.28 %ID/g
CN(Cc1ccccc1)C(=O)CN1CCN(CC(=O)[O-])CCN(CC(=O)[O-])CC1.[44Sc+3],,,"mouse, blood","intravenous, 1 h",,tracer uptake,3.22 %ID/g
N#C[C@@H]1CCCN1C(=O)CNC(=O)c1ccnc2ccc(OCCCN3CCN(C(=O)CCc4ccc5c(c4)CN4CCN(Cc6cc(CCC(=O)O)ccc6O)CC(=O)[O][Al-]([18F])([O]C(=O)C4)[O]5)CC3)cc12 (some centres unmarked),U-87 MG tumour model,,"host not given, bone","2 h, tumour-bearing",,tracer uptake,9.3 %ID/g
Cc1nn(-c2cccc(N)c2)c(=O)c2cnc(Nc3ccc(N4CCNCC4)cc3)nc12,"Misshapen-like kinase 1 (MINK1, Homo sapiens, UniProt Q8N4C8)","kinase activity, inhibitor, SelectScreen kinase profiling",,,,IC50,> 10 µM
CN(Cc1ccccc1)C(=O)CN1CCN(CC(=O)[O-])CCN(CC(=O)N(C)Cc2ccccc2)CC1.[18F-].[Sc+3],,,"mouse, bone","intravenous, 1 h",,tracer uptake,2.48 %ID/g
C/C(N)=N/C(=N\S(=O)(=O)c1ccc(C(F)(F)F)cc1)N1C[C@H](c2ccccc2)C(c2ccc(Cl)cc2)=N1,,metabolic stability,"monkey, liver cytosol",,,half-life,> 2 h
Nc1nc2cc(C(=O)c3ccc(F)cc3)ccc2[nH]1,Salmonella typhimurium,Ames preincubation test,TA98,"78.0 µg/plate, without S9",,revertants,21 revertants/plate
N#C[C@@H]1CC(F)(F)CN1C(=O)CNC(=O)c1ccnc2c(NC(=O)[C@H](CCCCNC(=O)CCOCCOCCOCCOCCOCCOCCNC(=O)CN3CCN(CC(=O)[O-])CCN(CC(=O)[O-])CCN(CC(=O)[O-])CC3)NC(=O)CCCc3ccc(I)cc3)cccc12.[177Lu+3],U-87 MG tumour model,,"host not given, tumour","96 h, tumour-bearing",,tracer uptake,1.53 %ID/g
O=C1NC2(CC2)COc2ncc(F)cc2[C@H]2COCCN2c2ccn3ncc1c3n2,Salmonella typhimurium,Ames test,TA1535,"5000 µg/plate, 48 h, added: rat liver S9",,revertant colonies,9 ± 6 revertants/plate
CCCC[C@H](NC(=O)COCCOCCNC(=O)CN1CCN(CC(=O)O)CCN(CC(=O)O)CC1)C(=O)N[C@H]1CC(=O)NCCCC[C@@H](C(N)=O)NC(=O)[C@H](Cc2c[nH]c3ccccc23)NC(=O)[C@H](CCCNC(=N)N)NC(=O)[C@@H](Cc2ccccc2)NC(=O)[C@H](Cc2c[nH]cn2)NC1=O [technetium-99m labelled],,,"C57 mouse, kidneys","intravenous, 0.037 MBq, 0.5 h",,tissue uptake,9.9 ± 0.94 %ID/g
N#C[C@@H]1CCCN1C(=O)CNC(=O)c1ccnc2ccc(OCCCN3CCN(C(=O)CCc4ccc(O)c(CN5CCN6CC(=O)[O][Al-]([18F])([O]C(=O)C5)[O]c5ccc(CCC(=O)N7CCN(CCCOc8ccc9nccc(C(=O)NCC(=O)N%10CCC[C@H]%10C#N)c9c8)CC7)cc5C6)c4)CC3)cc12 (some centres unmarked),U-87 MG tumour model,,"host not given, blood","1 h, tumour-bearing",,tracer uptake,6.75 %ID/g
CNC(=O)C1CCCN(C(=O)C2CC3CCC2N3C(=O)[C@@H]2C[C@@H](O)CN2C(=O)NCc2cccc(Cl)c2F)C1 (mixture of isomers),"Cytochrome P450 2C8 (CYP2C8, Homo sapiens, UniProt P10632)",preincubation without NADPH,human,1.85 µM,relative to: negative control,remaining activity,81.1% and 84.9% and 95.4%
O=C(Nc1cnccc1-c1ccc([18F])nc1)c1ccnc(NC(=O)C2CC2)c1,,,"FVB/NJ mouse, both sexes, liver","intravenous, 20 min",,SUV,9.63
Nc1nc(-c2ccccc2C(F)(F)F)nc2[nH]nc(Nc3ccccc3)c12,HeLa Ohio,,,72 h,,CC50,1.1 µM
CNS(=O)(=O)Nc1nccc(Cc2c(C)c3ccc(Oc4ncccc4F)cc3oc2=O)c1F,NCI-H3122,cell viability,,7 days,,IC50,0.194 µM
Nc1nc(-c2ccc(C(F)(F)F)cc2)nc2[nH]nc(Nc3ccc(F)cc3)c12,HeLa Ohio,,,72 h,,CC50,2.6 µM
OC(Cc1cc(-c2ccc(C(O)C(F)(F)F)s2)sc1-c1ccc(-c2sc(-c3ccc(C(O)C(F)(F)F)s3)cc2CC(O)C(F)(F)F)s1)C(F)(F)F (centres unmarked),primary human fetal neurons,LC-MS/MS,,"4 µM, 120 min, replicate 3",,amount in extracellular wash,0.01 nmol and 0.02 nmol

# A few entries again:
SMILES,tested on,test,system,setting,scale,quantity,value
CCCC[C@H](NC(=O)COCCOCCNC(=O)CN1CCN(CC(=O)O)CCN(CC(=O)O)CC1)C(=O)N[C@H]1CC(=O)NCCCC[C@@H](C(N)=O)NC(=O)[C@H](Cc2c[nH]c3ccccc23)NC(=O)[C@H](CCCNC(=N)N)NC(=O)[C@@H](Cc2ccccc2)NC(=O)[C@H](Cc2c[nH]cn2)NC1=O [technetium-99m labelled],,,"C57 mouse, kidneys","intravenous, 0.037 MBq, 0.5 h",,tissue uptake,9.9 ± 0.94 %ID/g
Nc1nc(-c2ccccc2)nc2[nH]nc(Nc3cccc(Cl)c3)c12,HeLa Ohio,,,72 h,,CC50,> 148 µM
